Experimental data gathered from unrelated publications.
± marks the error that the study gave.
TST: Thiosulfate sulfurtransferase (TST, Bos taurus, UniProt P00586)
Sequence of UniProt P00586 (whole entry, looked up): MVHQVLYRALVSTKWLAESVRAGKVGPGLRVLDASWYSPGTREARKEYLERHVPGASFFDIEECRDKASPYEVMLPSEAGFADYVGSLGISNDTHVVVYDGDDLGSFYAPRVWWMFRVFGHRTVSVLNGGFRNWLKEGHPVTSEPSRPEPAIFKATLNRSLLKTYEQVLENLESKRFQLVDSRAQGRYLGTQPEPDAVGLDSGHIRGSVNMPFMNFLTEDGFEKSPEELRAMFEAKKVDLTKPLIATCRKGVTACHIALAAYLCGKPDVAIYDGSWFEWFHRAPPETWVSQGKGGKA
MAOA: Amine oxidase [flavin-containing] A (MAOA, Homo sapiens, UniProt P21397)
Sequence of UniProt P21397 (whole entry, looked up): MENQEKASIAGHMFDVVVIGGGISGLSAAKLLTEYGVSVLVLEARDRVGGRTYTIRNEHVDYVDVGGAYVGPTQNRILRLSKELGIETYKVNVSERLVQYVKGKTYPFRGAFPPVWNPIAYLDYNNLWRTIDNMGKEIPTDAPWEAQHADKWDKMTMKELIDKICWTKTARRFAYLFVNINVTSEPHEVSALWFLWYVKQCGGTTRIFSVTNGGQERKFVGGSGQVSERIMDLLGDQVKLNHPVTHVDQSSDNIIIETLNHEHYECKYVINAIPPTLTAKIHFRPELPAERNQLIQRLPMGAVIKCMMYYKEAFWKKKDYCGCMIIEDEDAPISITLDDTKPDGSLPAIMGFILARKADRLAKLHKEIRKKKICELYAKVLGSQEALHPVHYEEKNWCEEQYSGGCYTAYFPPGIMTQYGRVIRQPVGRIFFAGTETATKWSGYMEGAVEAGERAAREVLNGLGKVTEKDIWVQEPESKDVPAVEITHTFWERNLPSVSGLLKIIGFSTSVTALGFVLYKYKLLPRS
fabG: 3-oxoacyl-[acyl-carrier-protein] reductase FabG (fabG, Pseudomonas aeruginosa, UniProt O54438)
Sequence of UniProt O54438 (whole entry, looked up): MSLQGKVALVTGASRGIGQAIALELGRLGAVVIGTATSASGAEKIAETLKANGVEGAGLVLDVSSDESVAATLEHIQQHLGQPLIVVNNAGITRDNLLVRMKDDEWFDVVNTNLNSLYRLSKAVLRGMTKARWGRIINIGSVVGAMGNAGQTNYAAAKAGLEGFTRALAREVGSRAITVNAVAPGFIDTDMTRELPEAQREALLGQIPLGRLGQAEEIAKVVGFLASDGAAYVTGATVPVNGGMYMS
Sequence of UniProt Q03111 (whole entry, looked up): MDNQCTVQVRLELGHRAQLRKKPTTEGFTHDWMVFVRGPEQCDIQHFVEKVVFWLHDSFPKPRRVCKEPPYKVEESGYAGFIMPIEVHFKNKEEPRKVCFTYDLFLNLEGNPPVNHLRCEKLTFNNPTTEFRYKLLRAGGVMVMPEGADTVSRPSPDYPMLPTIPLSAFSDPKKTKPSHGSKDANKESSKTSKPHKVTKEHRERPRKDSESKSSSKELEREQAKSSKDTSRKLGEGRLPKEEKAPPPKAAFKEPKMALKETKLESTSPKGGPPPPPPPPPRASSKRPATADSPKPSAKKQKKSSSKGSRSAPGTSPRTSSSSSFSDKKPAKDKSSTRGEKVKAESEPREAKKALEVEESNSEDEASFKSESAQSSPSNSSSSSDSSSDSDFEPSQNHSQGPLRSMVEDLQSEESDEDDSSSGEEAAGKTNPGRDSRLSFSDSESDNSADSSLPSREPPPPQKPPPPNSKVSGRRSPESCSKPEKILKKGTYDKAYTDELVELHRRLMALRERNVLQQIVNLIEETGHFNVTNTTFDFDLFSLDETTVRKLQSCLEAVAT
Sequence of UniProt P17655 (whole entry, looked up): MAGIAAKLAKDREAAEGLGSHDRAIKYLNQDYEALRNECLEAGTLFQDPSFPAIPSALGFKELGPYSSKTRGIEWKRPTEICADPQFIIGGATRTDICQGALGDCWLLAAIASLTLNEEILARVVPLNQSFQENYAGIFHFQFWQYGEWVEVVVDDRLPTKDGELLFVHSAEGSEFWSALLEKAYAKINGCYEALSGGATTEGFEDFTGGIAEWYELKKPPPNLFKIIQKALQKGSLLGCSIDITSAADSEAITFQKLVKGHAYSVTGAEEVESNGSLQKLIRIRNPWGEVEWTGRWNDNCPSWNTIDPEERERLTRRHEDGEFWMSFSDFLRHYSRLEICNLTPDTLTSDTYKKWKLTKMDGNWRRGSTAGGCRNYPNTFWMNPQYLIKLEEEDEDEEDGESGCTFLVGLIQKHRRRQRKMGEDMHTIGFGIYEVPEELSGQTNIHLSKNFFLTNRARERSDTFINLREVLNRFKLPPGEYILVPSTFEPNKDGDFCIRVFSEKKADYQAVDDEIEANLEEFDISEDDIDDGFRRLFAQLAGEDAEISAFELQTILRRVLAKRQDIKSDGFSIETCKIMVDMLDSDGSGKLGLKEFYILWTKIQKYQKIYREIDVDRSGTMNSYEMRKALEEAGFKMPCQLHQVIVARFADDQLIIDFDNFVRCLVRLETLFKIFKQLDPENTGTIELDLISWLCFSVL
Sequence of UniProt O60307 (whole entry, looked up): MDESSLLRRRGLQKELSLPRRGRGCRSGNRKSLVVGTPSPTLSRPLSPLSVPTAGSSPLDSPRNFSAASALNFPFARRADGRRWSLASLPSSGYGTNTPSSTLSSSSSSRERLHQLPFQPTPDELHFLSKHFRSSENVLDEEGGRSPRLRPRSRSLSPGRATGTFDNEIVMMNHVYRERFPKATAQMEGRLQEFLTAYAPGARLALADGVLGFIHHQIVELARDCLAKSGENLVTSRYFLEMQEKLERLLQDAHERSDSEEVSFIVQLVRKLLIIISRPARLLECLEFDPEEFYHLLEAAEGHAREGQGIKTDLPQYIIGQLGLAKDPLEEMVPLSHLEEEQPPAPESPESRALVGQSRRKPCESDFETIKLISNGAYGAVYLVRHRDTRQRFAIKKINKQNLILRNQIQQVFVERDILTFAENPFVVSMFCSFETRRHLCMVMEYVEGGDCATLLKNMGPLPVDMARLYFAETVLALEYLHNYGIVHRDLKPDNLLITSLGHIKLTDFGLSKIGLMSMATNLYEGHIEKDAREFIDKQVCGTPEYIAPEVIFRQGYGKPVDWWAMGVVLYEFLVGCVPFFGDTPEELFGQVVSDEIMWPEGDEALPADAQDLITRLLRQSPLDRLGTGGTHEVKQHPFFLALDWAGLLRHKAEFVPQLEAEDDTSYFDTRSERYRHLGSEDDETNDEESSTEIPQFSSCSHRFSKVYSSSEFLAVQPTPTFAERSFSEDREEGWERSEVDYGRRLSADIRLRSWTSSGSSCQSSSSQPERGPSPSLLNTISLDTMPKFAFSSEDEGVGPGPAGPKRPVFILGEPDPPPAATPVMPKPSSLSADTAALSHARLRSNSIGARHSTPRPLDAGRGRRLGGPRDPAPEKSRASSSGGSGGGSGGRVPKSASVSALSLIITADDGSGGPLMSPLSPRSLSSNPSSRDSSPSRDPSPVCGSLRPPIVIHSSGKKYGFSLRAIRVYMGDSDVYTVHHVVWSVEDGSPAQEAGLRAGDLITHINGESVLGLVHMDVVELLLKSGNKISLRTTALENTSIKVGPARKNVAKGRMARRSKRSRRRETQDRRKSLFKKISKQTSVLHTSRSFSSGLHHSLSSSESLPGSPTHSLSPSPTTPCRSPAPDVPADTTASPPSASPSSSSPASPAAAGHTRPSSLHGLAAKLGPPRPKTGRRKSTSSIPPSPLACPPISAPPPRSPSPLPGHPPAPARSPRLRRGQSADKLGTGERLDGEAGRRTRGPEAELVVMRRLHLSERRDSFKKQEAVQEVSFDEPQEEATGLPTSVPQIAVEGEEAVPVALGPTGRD
Sequence of UniProt Q9NNX6 (whole entry, looked up): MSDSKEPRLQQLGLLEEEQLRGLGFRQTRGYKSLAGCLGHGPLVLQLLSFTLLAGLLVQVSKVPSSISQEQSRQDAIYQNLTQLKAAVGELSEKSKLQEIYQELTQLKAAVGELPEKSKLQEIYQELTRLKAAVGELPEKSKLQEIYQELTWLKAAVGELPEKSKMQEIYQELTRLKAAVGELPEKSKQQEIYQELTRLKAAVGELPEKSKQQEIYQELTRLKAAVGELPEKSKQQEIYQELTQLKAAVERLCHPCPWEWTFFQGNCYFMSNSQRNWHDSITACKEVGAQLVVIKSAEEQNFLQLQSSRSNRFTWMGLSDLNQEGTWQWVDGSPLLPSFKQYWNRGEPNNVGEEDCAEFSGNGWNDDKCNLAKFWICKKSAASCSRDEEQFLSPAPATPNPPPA
Sequence of UniProt P61073 (whole entry, looked up): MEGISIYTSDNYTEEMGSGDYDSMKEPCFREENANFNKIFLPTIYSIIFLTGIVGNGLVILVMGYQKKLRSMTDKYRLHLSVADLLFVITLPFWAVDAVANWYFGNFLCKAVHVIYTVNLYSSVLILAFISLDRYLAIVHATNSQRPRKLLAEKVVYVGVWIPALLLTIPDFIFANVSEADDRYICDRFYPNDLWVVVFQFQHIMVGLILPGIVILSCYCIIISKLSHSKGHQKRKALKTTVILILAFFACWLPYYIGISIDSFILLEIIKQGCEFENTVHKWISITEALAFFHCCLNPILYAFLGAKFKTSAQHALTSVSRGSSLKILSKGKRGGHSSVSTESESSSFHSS
Sequence of UniProt P56373 (whole entry, looked up): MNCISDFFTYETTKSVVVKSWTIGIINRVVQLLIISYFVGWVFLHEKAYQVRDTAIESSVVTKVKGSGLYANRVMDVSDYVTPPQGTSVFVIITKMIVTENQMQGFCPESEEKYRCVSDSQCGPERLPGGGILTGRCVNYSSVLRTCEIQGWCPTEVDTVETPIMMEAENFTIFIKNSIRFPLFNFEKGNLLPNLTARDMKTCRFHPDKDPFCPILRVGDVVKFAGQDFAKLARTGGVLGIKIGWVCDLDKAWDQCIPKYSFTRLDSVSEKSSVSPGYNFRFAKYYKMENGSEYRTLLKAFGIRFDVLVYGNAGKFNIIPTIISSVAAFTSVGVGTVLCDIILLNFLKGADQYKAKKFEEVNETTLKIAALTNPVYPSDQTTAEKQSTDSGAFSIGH

CC1=C(C=O)C(C)(C)CCC1  IC50 (uncharacterized protein (Drosophila suzukii, UniProt A0AB39ZGK5); binding, bis-ANS competition fluorescence; pH 7.4, together with: bis-ANS): > 50 µM
COc1ccc(S(=O)(=O)Nc2ccc3oc(-c4ccc(NS(=O)(=O)c5cc(F)ccc5OC)cc4)nc3c2)cc1  IC50 (TST; enzyme activity, inhibitor; native rhodanese counter-screen): > 100 µM
OC[C@H]1O[C@@](CO)(O[C@H]2O[C@H](CO)[C@@H](O)[C@H](O)[C@H]2O)[C@@H](O)[C@@H]1O  IC50 (uncharacterized protein (Drosophila suzukii, UniProt A0AB39ZCT4); binding, bis-ANS competition fluorescence; pH 7.4, together with: bis-ANS): > 50 µM
COc1cc(NC(=O)c2ccc3c(c2)C(=O)NC3=O)ccc1Cl  IC50 (MAOA): > 40 µM
C#CCSc1nc(Sc2nnnn2-c2ccccc2)c2nnn(Cc3ccc(OC)cc3)c2n1  IC50 (Lysine-specific histone demethylase 1A (KDM1A, Homo sapiens, UniProt O60341); inhibitor): 0.136 µM
O=C(O)C1=CC(=C(c2ccc(O)c(C(=O)O)c2)c2ccc(O)c(C(=O)O)c2)C=CC1=O  IC50 (P2X purinoceptor 3 (P2RX3, Homo sapiens, UniProt P56373); ion current, antagonist, patch clamp; HEK293; together with: ATP4- 1 µM): 0.592 ± 0.088 µM
Cn1ncc2c(NCCO)nc(Nc3ccc(F)c(F)c3)nc21  IC50 (fabG): 0.11 µM
CCn1c(-c2nc3ccc(C(=O)N4CCCC(N)C4)cc3n2C)cc2ccccc21 (stereo not shown)  IC50 (Histamine H1 receptor (HRH1, Homo sapiens, UniProt P35367); antagonist, intracellular Ca2+ luminescence): > 39.8 µM
CCCCCCCCCCCC=O  IC50 (uncharacterized protein (Bradysia odoriphaga, UniProt A0A2S0X9G4); binding, competitive fluorescence displacement; pH 7.4): > 50 µM
C=C(C)[C@@H]1CC[C@]2(C)CC[C@]3(C)[C@H](CC[C@@H]4[C@@]5(C)CCCC(C)(C)[C@@H]5CC[C@]43C)[C@@H]12  IC50 (MAOA; enzyme activity, inhibitor; together with: kynuramine 80 µM): > 100 µM
CN1C(=O)[C@@H](Cc2ccc(O)cc2)NC(=O)CNC(=O)[C@H](Cc2ccc3ccccc3c2)NC(=O)[C@H](CCCNC(=N)N)NC(=O)[C@H]1CCCNC(=O)c1ccc(CNC(=O)CN2CCN(CC(=O)O)CCN(CC(=O)O)CCN(CC(=O)O)CC2)cc1  IC50 (C-X-C chemokine receptor type 4 (CXCR4, Homo sapiens, UniProt P61073)): 0.0441 ± 0.0042 µM
CC(C)C[C@H](NC(=O)[C@H](Cc1cccc2ccccc12)NC(=O)OCc1ccccc1)C(=O)NC(C[C@@H]1CCNC1=O)C1OC1S(C)(=O)=O (stereo partly shown)  IC50 (Genome polyprotein, 3C-like protease (ORF1, Hu/NV/NV/1968/US, UniProt Q83883); protease activity, inhibitor, FRET; GI.1; 37 °C): > 10 µM
CC(=O)c1ccccc1  IC50 (uncharacterized protein (Bradysia odoriphaga, UniProt A0A2S0X9G4); binding, competitive fluorescence displacement; pH 7.4): > 50 µM
O=C(Nc1ccc(Cl)c(Br)c1)c1ccc2c(c1)C(=O)NC2=O  IC50 (MAOA): > 40 µM
CCCCCCC=O  IC50 (uncharacterized protein (Bradysia odoriphaga, UniProt A0A2S0X9G4); binding, competitive fluorescence displacement; pH 7.4): > 50 µM
O=S(=O)(Nc1ccc(-c2nc3cc(NS(=O)(=O)c4ccccc4)ccc3o2)cc1)c1ccccc1  IC50 (TST; enzyme activity, inhibitor; native rhodanese counter-screen): > 100 µM
NS(=O)(=O)c1ccc(Nc2nc(-c3ccc(F)cc3F)cs2)cc1  IC50 (fabG; enzyme activity, inhibitor, NADPH fluorescence; reverse reaction, geometric mean, together with: 3-OH-decanoyl-NAC, NADP): 11.5 µM
CC(C)(/C=C(\C#N)C(=O)N1CCC[C@@H](n2nc(-c3ccc(Oc4ccccc4)cc3F)c3c(N)ncnc32)C1)N1CCN(C2COC2)CC1  IC50 (Cytoplasmic tyrosine-protein kinase BMX (BMX, Homo sapiens, UniProt P51813)): < 0.000254 µM
CC(C)[C@H](NC(=O)OCc1ccccc1)C(=O)N[C@H](C=O)Cc1ccccc1  IC50 (Calpain-2 catalytic subunit (Homo sapiens, UniProt P17655)): 0.11 ± 0.01 µM
COc1ccc(S(=O)(=O)Nc2ccc(-c3nc4cc(NS(=O)(=O)c5ccc(OC)cc5)ccc4o3)cc2)cc1  IC50 (TST; enzyme activity, inhibitor; native rhodanese counter-screen): > 100 µM
CCn1c(NC(=O)Nc2ccccc2C)nc2ccccc21  IC50 (fabG): 0.09 µM
O=c1ccc2ccccc2o1  IC50 (uncharacterized protein (Drosophila suzukii, UniProt A0AB39ZGK5); binding, bis-ANS competition fluorescence; pH 7.4, together with: bis-ANS): 35.6 µM
O=S(=O)(Nc1ccc(-c2nc3cc(NS(=O)(=O)c4ccc(Br)cc4)ccc3o2)cc1)c1ccc(Br)cc1  IC50 (TST; enzyme activity, inhibitor; native rhodanese counter-screen): > 100 µM
CCNc1nc(C#N)nc(Nc2ccccc2)n1  IC50 (fabG; enzyme activity, inhibitor, NADPH fluorescence; reverse reaction, geometric mean, together with: 3-OH-decanoyl-NAC, NADP): 3.8 µM
CC(=O)Nc1ccc(C(=O)Nc2ccccc2N)cc1  IC50 (Lysine-specific histone demethylase 1A, with CoREST (KDM1A, Homo sapiens, UniProt O60341); demethylase activity, inhibitor; LSD1-CoREST complex): > 150 µM
CCCCCCCCCCCCCCCC(=O)OC  IC50 (uncharacterized protein (Drosophila suzukii, UniProt A0AB39ZCT4); binding, bis-ANS competition fluorescence; pH 7.4, together with: bis-ANS): > 50 µM
O=C1Nc2ccc(Cl)cc2[C@@](C#CC2CC2)(C(F)(F)F)O1  IC50 (Gag-Pol polyprotein, reverse transcriptase (gag-pol, Xenotropic MuLV-related virus, UniProt A1Z651); inhibitor, primer extension; together with: 1 µM dNTPs): > 10 µM
O=C(Nc1ccccc1F)c1ccc2c(c1)C(=O)NC2=O  IC50 (MAOA): > 40 µM
O=Cc1cc2ccccc2cc1C=O  IC50 (CD209 antigen (CD209, Homo sapiens, UniProt Q9NNX6); binding, HRP plate assay, immobilized target; overnight, room temperature): 20 µM
CCCCCCCCCCCCCCCCC  IC50 (uncharacterized protein (Bradysia odoriphaga, UniProt A0A2S0X9G4); binding, competitive fluorescence displacement; pH 7.4): > 50 µM
Cc1ccc(NC(=O)c2ccc(C)c(C(F)(F)F)c2)cc1C#Cc1nn(C2CCC(O)CC2)c2ncnc(N)c12 (stereo not shown)  IC50 (Ribosomal protein S6 kinase alpha-1 (RPS6KA1, Homo sapiens, UniProt Q15418); inhibitor, radiometric kinase; together with: ATP 10 µM): 0.559 µM
Cc1cc(C)n2nc(C)c(-c3ccc(F)cc3)c2n1  IC50 (fabG; enzyme activity, inhibitor, NADPH fluorescence; reverse reaction, geometric mean, together with: 3-OH-decanoyl-NAC, NADP): 9.3 µM
CCCCCCCC=O  IC50 (uncharacterized protein (Bradysia odoriphaga, UniProt A0A2S0X9G4); binding, competitive fluorescence displacement; pH 7.4): > 50 µM
Nc1ccc(S(=O)(=O)Nc2ccc(-c3nc4cc(NS(=O)(=O)c5ccc(N)cc5)ccc4o3)cc2)cc1  IC50 (TST; enzyme activity, inhibitor; native rhodanese counter-screen): > 100 µM
O=C(Nc1ccc(F)c(F)c1)c1ccc2c(c1)C(=O)NC2=O  IC50 (MAOA): > 40 µM
Cc1nc(Nc2ncc(C(=O)Nc3c(C)cccc3Cl)s2)cc(N2CC[C@H](O)C2)n1  IC50 (Tyrosine-protein kinase Lck (LCK, Homo sapiens, UniProt P06239); enzyme activity, inhibitor): 0.00012 µM
CN1CCN(c2ccc(Nc3ncc4cc(C#N)c(=O)n(C5CCCC5)c4n3)cc2)CC1  IC50 (Serine/threonine-protein kinase 17A (STK17A, Homo sapiens, UniProt Q9UEE5)): > 10 µM
Cc1[nH]c(N)nc1CCC(=O)c1ccccc1  IC50 (Voltage-gated hydrogen channel 1 (HVCN1, Homo sapiens, UniProt Q96D96); proton current, inhibitor, inside-out patch clamp; Xenopus laevis oocytes; pH 6.0): 72.1 ± 3.7 µM
O=C(CCCCCCC(=O)Nc1ccc(CCF)cc1)NO  IC50 (Polyamine deacetylase HDAC10 (HDAC10, Homo sapiens, UniProt Q969S8)): 0.169 µM
CCCCOC(=O)CCC(C)=O  IC50 (uncharacterized protein (Bradysia odoriphaga, UniProt A0A2S0X9G4); binding, competitive fluorescence displacement; pH 7.4): > 50 µM
O=C(Nc1ccccc1)c1ccc2c(c1)C(=O)NC2=O  IC50 (MAOA): > 40 µM
CCCCCCCC/C=C\CCCCCCCCCCCCC  IC50 (uncharacterized protein (Drosophila suzukii, UniProt A0AB39ZGK5); binding, bis-ANS competition fluorescence; pH 7.4, together with: bis-ANS): > 50 µM
c1cc(N2CCCC2)ccc1-c1cc2ncc(OCC3CCNCC3)nc2cc1-c1ccc(N2CCCC2)cc1  IC50 (Protein ENL, with DOT1L (MLLT1, Homo sapiens, UniProt Q03111); AlphaScreen): 0.95 ± 0.13 µM
O=C(O)c1ccc(NS(=O)(=O)c2ccc(Cl)c(Cl)c2)cc1  IC50 (Estradiol 17-beta-dehydrogenase 11 (Homo sapiens, UniProt Q8NBQ5); enzyme activity, inhibitor; together with: 20-HETE ethanolamide substrate): > 100 µM
CC[C@@H]1[C@H](F)C(=O)N[C@@H]1COc1nccc2cc(C(N)=O)c(OC)cc12  IC50 (Microtubule-associated serine/threonine-protein kinase 3 (MAST3, Homo sapiens, UniProt O60307); ATP-site probe binding, ActivX profiling; THP-1 cell lysate; Lys2 site): > 5 µM
Cc1ccc2c(NS(=O)(=O)c3ccccc3Cl)cccc2c1Oc1ncccc1-c1ccnc(N[C@H]2CCCNC2)n1  IC50 (Serine/threonine-protein kinase/endoribonuclease IRE1 (ERN1, Homo sapiens, UniProt O75460); RNase activity, inhibitor, FRET suppression; 90 min preincubation, together with: XBP1 RNA substrate): 2.33 µM
CCCCCC/C=C\CC/C=C\CCCCCCCCCCCCCCC  IC50 (uncharacterized protein (Drosophila suzukii, UniProt A0AB39ZCT4); binding, bis-ANS competition fluorescence; pH 7.4, together with: bis-ANS): > 50 µM
O=C(CN1C(=O)Cc2c([nH]c3ccc(Br)cc23)-c2ccc(Cl)cc21)Nc1ccccc1  IC50 (Trypanothione synthetase (Trypanosoma brucei brucei, UniProt Q8IEX1); enzyme activity; Trypanosoma brucei): ~30 µM
CCCCCCCCCCCCCC(=O)OC  IC50 (uncharacterized protein (Drosophila suzukii, UniProt A0AB39ZGK5); binding, bis-ANS competition fluorescence; pH 7.4, together with: bis-ANS): > 50 µM
CCC(CC)COC(=O)[C@H](C)N[P@](=O)(OC[C@H]1O[C@@](C#N)(c2ccc3c(N)ncnn23)[C@H](O)[C@@H]1O)Oc1ccccc1  IC50 (Cocaine esterase (CES2, Homo sapiens, UniProt O00748); enzyme activity, inhibitor; together with: fluorescein diacetate): 0.121 µM
c1cc(N2CCCCC2)ccc1Nc1cc2ncc(OCC3CCNCC3)nc2cc1-c1ccc(N2CCCCC2)cc1  IC50 (Protein ENL, with AF4 (MLLT1, Homo sapiens, UniProt Q03111); AlphaScreen): 0.56 ± 0.18 µM
O=C(Nc1ccc(Br)cc1)c1ccc2c(c1)C(=O)NC2=O  IC50 (MAOA): > 40 µM
CC[N+](CC)(CC(=O)Nc1c(C)cccc1C)Cc1ccccc1  IC50 (uncharacterized protein (Drosophila suzukii, UniProt A0AB39ZCT4); binding, bis-ANS competition fluorescence; pH 7.4, together with: bis-ANS): > 50 µM
O=C(Nc1ccc(Sc2nc3ccccc3s2)cc1)c1cc(Br)cc(Br)c1O  IC50 (TST; enzyme activity, inhibitor; native rhodanese counter-screen): > 100 µM
Cc1cnc(-c2ccc(-c3ccc(NC(=O)Nc4c(F)cc(F)cc4F)cc3F)c3c2C(=O)NC3)[nH]1  IC50 (TRAF2 and NCK-interacting protein kinase (TNIK, Homo sapiens, UniProt Q9UKE5); enzyme activity, inhibitor, mobility shift; together with: ATP 1 mM): 0.0995 µM
